Assay results pooled from the literature.
A part holds a random share of what one study measured.

Set 1
Target: PABPC1L2, full length, GST fusion (mouse, UniProt A0ABA7IW68)
Method: RNAcompete
Molecule type: RNA
Medium: in vitro
Concentration: 20 nM
Notes: 7-mer, probes averaged, single round
Baseline: mean of 7-mers
Direction: higher = stronger binding
| Sequence | 7-mer Z-score |
| --- | --- |
| CACCGGA | -0.0138 |
| UCGAAUU | -0.146 |
| GGAACCG | -0.0283 |
| AUAAGUC | -0.0138 |
| UAUUACA | -0.155 |
| CUAGUCC | -0.485 |
| UCCGGAG | -0.159 |
| UAUACCA | -0.157 |
| UCCGUUG | -0.353 |
| UGUGUUC | -0.469 |
| GGGAGUG | 0.245 |
| UACCACA | -0.106 |
| UUGGGUU | -0.335 |
| UCAGAGA | -0.0246 |
| GCGGCCU | -0.28 |
| UGUAGUU | -0.267 |
| ACGGUCG | -0.304 |

Set 2
Target: Histone acetyltransferase KAT6A, winged helix 1, GST fusion (KAT6A, Homo sapiens, UniProt Q92794, residues 1-85)
Method: protein binding microarray
Molecule type: double-stranded DNA, one strand shown
Medium: in vitro
Concentration: not given
Notes: 8-mer, flanks averaged, mean of 2 arrays, mostly near background
Baseline: not given
Direction: higher = stronger binding
Target sequence (chain): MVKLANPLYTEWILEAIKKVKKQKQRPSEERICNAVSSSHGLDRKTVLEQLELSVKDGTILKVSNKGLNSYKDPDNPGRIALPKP
| Sequence | E-score |
| --- | --- |
| CCTAGACA | -0.0856 |
| AGTGCGCC | 0.346 |
| ACGCGAAG | 0.0688 |
| CTGTTGAA | -0.119 |
| ACTGAGTC | -0.123 |
| GCGCTCCA | 0.25 |
| AAAGGACT | -0.181 |
| CACATCTG | -0.192 |
| CGCACAGA | 0.186 |
| CTGCTCAA | -0.264 |
| AAGGAGAC | -0.146 |
| ATTGGTCA | -0.184 |
| CGGAGCGA | 0.0918 |
| TGGGATAA | -0.279 |
| TCGTGAGA | 0.0819 |
| CACAACGC | 0.108 |

Set 3
Target: Hepatocyte nuclear factor 3-alpha (Foxa1, Mus musculus, UniProt P35582, residues 1-468, full length assumed)
UniProt P35582, sequence (whole entry, looked up): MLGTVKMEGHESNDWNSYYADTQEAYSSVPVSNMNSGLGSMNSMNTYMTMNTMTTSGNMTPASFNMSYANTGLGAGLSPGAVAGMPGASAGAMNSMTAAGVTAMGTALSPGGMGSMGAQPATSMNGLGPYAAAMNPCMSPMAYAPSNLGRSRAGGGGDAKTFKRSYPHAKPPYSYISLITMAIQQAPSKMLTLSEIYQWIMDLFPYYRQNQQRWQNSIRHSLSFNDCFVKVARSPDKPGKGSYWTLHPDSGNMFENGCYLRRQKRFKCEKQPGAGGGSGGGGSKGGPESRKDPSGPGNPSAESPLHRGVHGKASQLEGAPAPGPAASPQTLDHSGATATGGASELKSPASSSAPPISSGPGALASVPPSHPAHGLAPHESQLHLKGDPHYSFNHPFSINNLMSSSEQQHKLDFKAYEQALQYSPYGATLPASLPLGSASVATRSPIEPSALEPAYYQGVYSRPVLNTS
Method: EMSA with sequencing
Molecule type: double-stranded DNA, one strand shown
Medium: in vitro
Concentration: 10 and 20 nM
Notes: whole designed probe, mean of two concentrations, ends assumed
Baseline: negative control set to 0
Direction: higher = stronger binding
Shared flanks, not repeated: GTGAGCGGTGCCCATTGATGGGGAAC … TTTCACTGGGATCGTGGGGAC
| Sequence | normalised bound fraction [ratio] |
| --- | --- |
| CATTAGAGTCAAAGTTGTTAAGGGGAGCTAGTCATAGCTACCACGTGGCCAGGCATGTGGAAATGAATCATCACCAGACACCAGGCACATAAAGTAAATAGATGAATAATGCTGACAACCTAGTTCATAGTGACACACTACTTGAGATATATAGAATAACATTATTACCCAGTAAGTATGTGAACATTCCGAT | 0.428 |
| TCCAGAAGGTCATATAAGTGAAATCACACAGTAGCTAGCCTTTTGAATAAGGTTCCTTTCACTTAGCTTAGTGCATTTGAGATTCATCCACACTGTTGACTCATCCATGGTTTGTTCCTTTTTATTGCTGAGTAGTAGTTGATTGTATGGTTGTGCCACCATGCCCATTCATTCACCAGCTGAAGAATACTCG | 0.0363 |
| GTAGGTGACTCAGCTTCCTGCAACCTCGCTGGGGAAATTTCTCCAAATATTAATGCATGCCACGTAAGCCAGGTTCACTTGCTGGCCCTGGATGTTTATTCTGGCCCCCAGTTATATTTATTTTGTGTCTGGTAGAGCCTCACACTTCAAAGTGGAATGCTCCTGAAGTTTCTACCTGGCCTCTCATCCCAGT | 0.351 |
| CACCGCGCTCGCACGGCTTTGTCCGTGCTACAAAGCAGCCTGTTAAACTATTGGAACTAATGCGCCGCAGCTGCGCGAGTGACTTCTGCTGCTTATGTACATAAAAAGTCCTGTAACCATGGGGGAGGGCTCAGATGCCTGCTGCTGGGTTGTTTGGCTAGTCTTTCCATTTGCTTATTCCTGAATCCAAAGG | 0.324 |
| ATCTTCCCCCTCTTCCTTGCCCCACCAGCTCACCTTCCCGGGTTATTTGCACAAAGGAAAATAAATAAAGCCGGCATTCGTTAACGCAGTTCACGCGCATACTGCTGTTTGCTCTGCATCTAACATGGTCCTTACGCGAGGCGTGGCTCCGGGAGAGCAAAGCACCGTGTCAGGCGCATGATCCGGGGTGGCC | 0.384 |
| CTTGCTGATTGCTAGCACAGCAGTCTGAGATCAAACTGCAAGGCGGCAGCAAGGCTGGGGGAGGGGCGCCCGCGTTTGCCCAGGCTTGCTTAGGTAAACAAAGCAGCCTGGAAGCTCGTACTGGGTGGAGCCCACGACGCTCAAGGAGGCCTGCCTGCCTCTGTAGGCTCCACCTCTGGGGGCAGGGCACAGA | 0.542 |
| ACATTTGGGTCATTCCACCCTTTGACTAATGTGATCAGTGCTGCTCTGAACATTCGTGTATGAGTATTTGAGGATCGTTTTCACTTCTCTTGGGTAAACATCTAGGAGTGAAATTGCTGAGTCATAGGGCAGTTTTATGTGTAACTACTTTTTGAGGAGTGCAGTGGCATAATCTTGCCTCACTGAAACCTCC | 0.263 |
| TTGATCTAGTCTCAATTACACCCTTGACTTAAGCCATTTTTCATGTACCACCCTAGTCTTTATCTGAATCACACATATCAGTTATAATATTCCTTGTTTACTCATTTGTGACTTTTCTAGAAGCATTGGGGTATCATGTGAACTTCATGTTTTCTTCCCGATACTGTTGATACTTTTAGATATGTCTTAATTA | 0.288 |

Set 4
Target: Ras GTPase-activating protein-binding protein 1, RRM domain (G3BP1, Homo sapiens, UniProt Q13283)
UniProt Q13283, sequence (whole entry, looked up): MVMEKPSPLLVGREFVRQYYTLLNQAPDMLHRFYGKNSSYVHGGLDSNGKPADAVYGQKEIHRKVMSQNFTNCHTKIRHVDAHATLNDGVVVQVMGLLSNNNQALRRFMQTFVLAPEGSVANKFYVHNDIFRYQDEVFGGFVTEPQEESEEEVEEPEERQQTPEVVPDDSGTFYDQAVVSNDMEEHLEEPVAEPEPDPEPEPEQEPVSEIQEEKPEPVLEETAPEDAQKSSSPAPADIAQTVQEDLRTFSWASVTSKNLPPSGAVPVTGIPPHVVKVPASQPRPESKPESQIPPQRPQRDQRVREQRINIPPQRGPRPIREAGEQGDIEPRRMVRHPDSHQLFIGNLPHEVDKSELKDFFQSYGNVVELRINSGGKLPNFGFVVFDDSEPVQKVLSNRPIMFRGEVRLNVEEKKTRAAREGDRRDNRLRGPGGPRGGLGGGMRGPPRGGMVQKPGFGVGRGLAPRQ
Method: RNA Bind-n-Seq
Molecule type: RNA
Medium: in vitro
Concentration: 1 µM
Notes: whole 134-nt RNA, ends assumed
With: 150 mM KCl
Baseline: input library
Direction: higher = stronger binding
Shared flanks, not repeated: GGGAGUUCUACAGUCCGACGAUC … UGGAAUUCUCGGGUGUCAAGG
| Sequence | log2 enrichment |
| --- | --- |
| UCCUCAAGUCCUGUGCUACACAUCGUAUGUACCGAAUCGGAAAGGAGGAGGAAAGUAUUAUGUUACGCCGUUCGGAUCUGCACUUCCAGC | -0.261 |
| UCAAGUCCUGUGCUACACAUCGUAUGUACCGAAUCGGUGGUUUGGUUUUUUUGGAAAGUAUUAUGUUACGCCGUUCGGAUCUGCACUUCC | -0.295 |
| UGGCCCUGGUGGCAUGCGGGGAGGAAGAGGUGGCCUCAUGGAUCGUGGUGGUCCGGGUGGAAUGUUCAGAGGUGGCCGUGGUGGAGACAG | 0.551 |
| AAGUCCUGUGCUACACAUCGUAUGUACCGAAUCGGUUUUGGGGUUUUGGGGUUUUGGAAAGUAUUAUGUUACGCCGUUCGGAUCUGCACU | -0.133 |
| GUCCUGUGCUACACAUCGUAUGUACCGAAUCGGGAAAAAGGGAAAAAAAGGGAAAGGGAAAGUAUUAUGUUACGCCGUUCGGAUCUGCAC | 0.283 |
| UGGCCCUGGUGGCAUGCGGGGAGGAAGAGGUGGCCUCAUGGAUCGUGGUGGUCCCGGUGGAAUGUUCAGAGGUGGCCGGGGUGGAGACAG | 1.41 |
| CACAGACAACACGCACCCACACAGACACAGAGGGACGGGGUUGGGAUGGGGACAGGGUGCACAGCAGGGCGGGGUAGGACCCCAGCCCCU | 0.383 |
| UUGGCUACAAUGCAGAGACACAGAAACUACUAUGCAAGAAUGGGGAAACGCUGCUAGGAGCCGUGAACUUCUUUGUCUCUAGCAUCAACA | 0.043 |
| GCAGGAAGUAAAAACAAAUGGAAAGGCUUCGGAUAGUGGCAGGGGUGGGGGUUGCUAAGGAAAGGGUGGGAUGGGAGUGGGUAAAGAGUU | 1.24 |
| CAAGUCCUGUGCUACACAUCGUAUGUACCGAAUCGGUUUGGAAAAAAAGGUUUGGAAAGUAUUAUGUUACGCCGUUCGGAUCUGCACUUC | -0.419 |
| UCCUGUGCUACACAUCGUAUGUACCGAAUCGGGGUUUUUGGGGAAAGGGGUUUUUGGGGAAAGUAUUAUGUUACGCCGUUCGGAUCUGCA | 1.14 |
| GAGGGAGUUUGCAGAUACCUCAGGAUUCGUGACAAUGCCUUUAAAGAUCCAGGAGAGAUGUUCAGCUACUAGGAACUGCUAGCAAGUAUA | -0.0699 |
| UUUCACAGAGAAGCAAAUGCUGGCACAAGGAUACCCUGCUUACACGACAUCGUGCGCCUGGCUGGGGUACUCAGAUGACACGUUGAAGCA | -0.112 |
| UAACUUUAGAGGAGGAUCUGAUGGACAUGGCAGUGGACGUGGAUUUGGGGAUGGCUAUAAUGGGUAUGGAGGAGGACCUGGAGGUGGCAA | -0.867 |

Set 5
Target: RNA binding protein fox-1 homolog 2, RRM domain, GST-SBP tag (RBFOX2, Homo sapiens, UniProt O43251-10, residues 100-194)
Method: RNA Bind-n-Seq
Molecule type: RNA
Medium: in vitro
Concentration: 365 nM
Notes: natural RNA segment, single round, ends assumed
Baseline: no-protein control
Direction: higher = stronger binding
Shared flanks, not repeated: GGGAGUUCUACAGUCCGACGAUC … UGGAAUUCUCGGGUGCCAA
Residues (chain): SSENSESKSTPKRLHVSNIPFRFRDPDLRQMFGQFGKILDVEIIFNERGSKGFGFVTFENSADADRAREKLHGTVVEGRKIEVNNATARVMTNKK
| Sequence | RBNS enrichment (R) |
| --- | --- |
| UUGGAGCCUAUAAUUUUUUUACCUUACAUUUUAGGUAGAAACCAAAUAAAAGAUUUUGCUAAGAAGAUGUUUUGUUUUGUGUGUGGUGCUAAGGAUUAACAUUAGGGCCU | 0.356 |
| UAGAAACGUAAGAUGACUUGUGUAGCACCUCUUUAUAAGCACACAGCUCAUCUUAAUAUUUUCCAUUUUUAUUAGAGGAAGUAGGACAGAGUUGUGUUUUUCUUUAUAAA | 1.09 |
| UGCUAGCAGCAGUCUUCUUCACAGUGCCUUGGGAAAAGACAUUUCAAGAGGAAACUUGAUAAUUUUAAACUCUUUUCCCCCUUUACCGUCAUCUAUCCUCUAUCUGUAUC | 0.517 |
| CUGCCUUGUUCUGUCAUCCAGGGCUCCUUUGCUGCCCCGUUCUGUCACCCAGGGCUCCUAGGGGGACAAGGCUCUCUCCCGAGGGGUGUGGAAUUCCUGGGGGGGUCUUU | 1.07 |
| CCAUCAGAUGUCUGGGCCUCCUCCAUCAGAUGUCUGGGCCUCCUCCAUCAGAUGCUUGGGCCUCCUCCAUCAGAUGCCUGGGCCUCCUCCAUCAGAUGUCUGGGCCUCCU | 0.253 |
| AAUCUAGGGAGGGCGGGGUGAAGUGCUGAAAGCUCACACUGAAGUGUGUUUGUAGGAGAUUCAUAAAACUAAGUUUUUAAAUGGUUCAUUCCUUUAUGGGAGCGUCUGCG | 0.497 |
| UAUGGUUUGUCUUAUGCUGCAUAGACUAUUCACCUCCUAACUUGAAGGUCUAAUCAUAAGACAAUUGUUUUUUUGUGCAUAGUUUUCAUCUAAAAUUAAGUUUACCAAAG | 0.79 |
| AGAUUUGAAUUAUCGAGGCAUUUAUUGUGUACUCUUCAACAGUGCUAAAUAAAACAACAUACCAAGCAAGUCUAGUCAUUAACACCCCUUGUUGGCAUCUAGCACAUCAC | 0.654 |
| UGUUAGCCUUGGACUGAAGGGGUUUUAAGUUUUGAGGGGUAGGAAGAGAGUUACAGGAAUAGAGAACCUGUUUUUGAGACAUGUUGUCAUUUUGAUGAGAUAACCUUCAU | 0.937 |
| UAACUAUAAUAUAUAUGAAUAUAAAUUUAGCUAAUGUUUGUGAGAGUGGGGCCUGCACACGUGUUCCUGUCAGAGGCAAGGCUCACAUUCCUUGCCAGCACCUCUUUCUC | 0.902 |
| AUUGUACUAGGAUUAAAAACAAUAAACUUUCAUGAUAAAGCCGAUGAGAUUCAUGGGCUAUACAGCAUGGGCCCUUUUCUCUUGUUUUCUUAAUUUUAUUUUUAAUUGCU | 11 |
| ACAACAACCCAUAUAAAUAAAACCCACCCCUCUCUGGGAAACAACCAUAAUUCAAACAUGGCUAUUUAGUAAUCAGAAGGUAUUGUCUCAGACAGGAUUUCAUUUCCGGG | 0.364 |

Some of these lines once more (set 1):
| Sequence | 7-mer Z-score |
| --- | --- |
| UCAGAGA | -0.0246 |
| UCGAAUU | -0.146 |
| ACGGUCG | -0.304 |
| UGUAGUU | -0.267 |
| UAUUACA | -0.155 |
| GGAACCG | -0.0283 |
